Published values of several laboratories.
Lines come from different studies, so protocols differ. ± marks the error that the study gave. Ends that are not written are not given here.
B1: UGT1A9 (Homo sapiens, UniProt O60656); chain GKLLVVPMDGSHWFTMRSVVEKLILRGHEVVVVMPEVSWQLGRSLNCTVKTYSTSYTLEDLDREFKAFAHAQWKAQVRSIYSLLMGSYNDIFDLFFSNCRSLFKDKKLVEYLKESSFDAVFLDPFDNCGLIVAKYFSLPSVVFARGILCHYLEEGAQCPAPLSYVPRILLGFSDAMTFKERVRNHIMHLEEHLLCHRFFKNALEIASEILQTPVTEYDLYSHTSIWLLRTDFVLDYPKPVMPNMIFIGGINCHQGKPLPMEFEAYINASGEHGIVVFSLGSMVSEIPEKKAMAIADALGKIPQTVLWRYTGTRPSNLANNTILVKWLPQNDLLGHPMTRAFITHAGSHGVYESICNGVPMVMMPLFGDQMDNAKRMETKGAGVTLNVLEMTSEDLENALKAVINDKSYKENIMRLSSLHKDRPVEPLDLAVFWVEFVMRHKGAPHLRPAAHDLTWYQYHSLDVIGFLLAVVLTVAFITFKCCAYGYRKCLGKKGRVKKAHKSKTH
B2: enzyme (Bacillus pumilus, UniProt A8FFI9); chain EARSIAWSVDEFFKNREGTFVIQEVKEKSPWVYNKKRAKERFAPQSTFKVANALIGLQTGAVRDEYDIKYWDGVKREIDNWNRDHTLGSGMRDSVVWYYQAMARDIGEERMNHWVKAIHYGNKDISGGIDQFWLSSTLRISPIEQVRFLKQLYEETLPFDLKNMRTVKRMMVQEEEKHATLYGKTGSGSDIGWYVGFIKHEHKTYILATNIKGTGIEAKDITYRILKKYHLMEASV
B3: ths (Pyrococcus horikoshii, UniProt O57762); sequence looked up; chain MAQLAGQPILILPEGTQRYVGRDAQRMNILAARIIAETVRTTLGPKGMDKMLVDSLGDIVITNDGATILDEMDIQHPAAKMMVEVAKTQDKEAGDGTTTAVVIAGELLKKAEELLDQNIHPSIIIKGYTLASQKAQEILDSIAKEVKPDDEEVLLKAAMTAITGKAAEEEREYLAKLAVEAVKLVAEEKDGKLKVDIDNIKLEKKEGGAVRDTRLIRGVVIDKEVVHPGMPKRIENAKIALINDALEVKETETDAEIRITSPEQLQAFLEQEEKMLKEMVDKIKEVGANVVFVQKGIDDLAQHYLAKYGILAVRRVKKSDMEKLAKATGAKIVTNIRDLTPEDLGEAELVEERKVAGENMIFVEGCKNPKAVTILIRGGTEHVVDEVERALEDAIKVVKDILEDGKIIAGGGASEIELSIKLDEYAKEVGGKEQLAIEAFAEALKVIPRTLAENAGLDPIETLVKVIAAHKEKGQTIGIDVYEGEPADMMERGVIEPVRVKKQAIKSASEAAIMILRIDDVIAASKLEKEKEGEKGGGSEEFSGSSDLD
UniProt Q18B70, sequence (whole entry, looked up): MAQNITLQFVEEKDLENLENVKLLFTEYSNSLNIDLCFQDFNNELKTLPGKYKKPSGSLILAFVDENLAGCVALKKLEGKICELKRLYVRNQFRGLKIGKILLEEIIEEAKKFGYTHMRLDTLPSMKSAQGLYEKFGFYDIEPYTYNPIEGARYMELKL
UniProt P00698, sequence (whole entry, looked up): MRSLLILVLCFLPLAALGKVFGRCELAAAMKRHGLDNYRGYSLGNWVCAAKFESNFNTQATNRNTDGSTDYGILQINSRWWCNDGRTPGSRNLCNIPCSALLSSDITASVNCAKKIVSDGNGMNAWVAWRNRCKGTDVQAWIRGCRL

Substance	tested on	assay	test system	conditions	scale	measurement	result
insulin degludec		ELISA	human mild renal impairment, serum	dose not given, single dose	baseline: impaired over normal renal function	Cmax ratio	1.14
protein (Sinorhizobium meliloti, UniProt Q92LZ4)	NC(=O)C1=CN([C@@H]2O[C@H](COP(=O)(O)OP(=O)(O)OC[C@H]3O[C@@H](n4cnc5c(N)ncnc54)[C@H](OP(=O)(O)O)[C@@H]3O)[C@@H](O)[C@H]2O)C=CC1	steady-state kinetics		pH 7.5, 25 °C, NaCl 150 mM, cofactor varied, with: hydroxypyruvate 66.7 mM		K0.5	59 µM
B1 (UGT1A9)	Cc1ccc2oc(-c3ccc4c(c3)OCO4)c(O)c(=O)c2c1	steady-state kinetics		pH 7.4, 37 °C		Vmax/Km	91000 µL/min/mg
protein (Clostridioides difficile, UniProt Q18B70)	C[C@@H](O)[C@H](N)C(=O)O	steady-state kinetics		pH 8, 37 °C, with: AcCoA 1 mM, L-Thr 0-10 mM		K0.5	5960 µM
B2 (enzyme)	C[C@@H](O)[C@H]1C(=O)N2C(C(=O)O)=C(SCCN=CN)C[C@H]12	steady-state kinetics		pH 7		kcat	0.26 ± 0.02 s⁻¹
B3 (ths)	LYZ, methyl-labelled (Gallus gallus, UniProt P00698)	NMR thermal unfolding			baseline: without hsp60, higher = more stable	melting temperature	5 °C
FITC-labelled amyloid β(1-40)	bEnd.3, claudin-5 and occludin siRNA	basolateral to apical, Transwell		10 µM, 2 h, 37 °C, 72 h after siRNA	baseline: non-targeting siRNA	permeability	increased
KCNTATCATQRLANFLVHSSNNFGPILPPTNVGSNTY (Pramlintide; not fully specified (C-terminus, bridges); cysteine pairing not given here; sequence looked up)		refers to: Vomiting	peptide, obese or overweight humans	concentration not given, ITT population		adverse event incidence	1.8%
CC(C)[C@H](NC(=O)[C@@H]1CCCN1C(=O)[C@H](CCCNC(=N)N)NC(=O)[C@H](CS)NC(=O)[C@H](Cc1c[nH]c2ccccc12)NC(=O)[C@H](CCCNC(=N)N)NC(=O)[C@@H](Cc1ccccc1)NC(=O)[C@H](Cc1c[nH]cn1)NC(=O)[C@H](CCC(=O)O)NC(=O)[C@H](CS)NC(=O)[C@H](CS)NC(=O)[C@H](CCCCN)NC(=O)[C@@H]1CC(=O)N[C@@H](CCCNC(=N)N)C(=O)N[C@@H](C)C(=O)N[C@@H](CC(=O)O)C(=O)N[C@H](Cc2ccc(O)cc2)C(=O)N1)C(N)=O [technetium-99m labelled]			C57 mice, heart	intravenous, 0.037 MBq, 2 h		tissue uptake	0.32 ± 0.13 %ID/g

Repeated from above:
Substance	tested on	assay	test system	conditions	scale	measurement	result
FITC-labelled amyloid β(1-40)	bEnd.3, claudin-5 and occludin siRNA	basolateral to apical, Transwell		10 µM, 2 h, 37 °C, 72 h after siRNA	baseline: non-targeting siRNA	permeability	increased
